Published values gathered from unrelated publications.
Each line is one published result; not all experiments were run side by side. “And” joins repeats or separate records; there may be more than shown. ± marks the error that the study gave.

CNc1ccc(-c2nc3ccc(O)cc3s2)cc1 [carbon-11 labelled]  SUV (ex vivo biodistribution; B6SJL mouse, normal, kidneys; intravenous, 30 min): 3.88 ± 0.803
CNCCOC12CC3(C)CC(C)(CC(Cn4ncc(-c5ccc(N6CCc7cccc(C(=O)Nc8nc9ccccc9s8)c7C6)nc5C(=O)O)c4C)(C3)C1)C2  cardiac output change (anaesthetised male beagle dogs; intravenous bolus, 0.03 mg/kg, 30 min; baseline: baseline): -8%
Cc1ccc(-c2ccccc2C(=O)NC[C@@]2(C3CC3)NC(=O)NC2=O)cc1  blood clearance (rat Wistar male; intravenous): 1.8 L/h/kg
CN1CC(=O)N2[C@H](c3ccc4c(c3)OCO4)c3[nH]c4ccccc4c3C[C@@H]2C1=O  accuracy (human plasma; 400 ng/mL, freeze-thaw at -70 °C): 99.4%
CN(C(=O)n1cnc(-c2ccc[n+]([O-])c2)c1)[C@H]1CC[C@H](O)CC1  Tmax (cynomolgus monkeys, plasma; oral, 1.0 mg/kg): 2 h
CCN1CCN(Cc2ccc(Nc3ncc(F)c(-c4cc(F)c5nc(C)n(C(C)C)c5c4)n3)nc2)CC1  Vss/F (healthy human, fasted; oral, 150 mg, 3 x 50 mg capsules): 1740 L
CN[C@@H]1COc2c(S(=O)(=O)NC(=O)Nc3c4c(cc5c3CCC5)CCC4)cnn2C1  amount excreted in urine (0-48 h) (human, urine; oral, 450 mg, 0-48 h): 81 mg
C[C@H]1Oc2cc(cnc2N)-c2c(nn(C)c2C#N)CN(C)C(=O)c2ccc(F)cc21  free plasma concentration (Balb/c nude mouse, female, plasma; 5 mg/kg, single dose, 12 h): 0.0495 µM
C[C@H]1O[C@@H](O[C@H]2[C@@H](O)C[C@H](O[C@H]3[C@@H](O)C[C@H](O[C@H]4CC[C@@]5(C)[C@H](CC[C@@H]6[C@@H]5C[C@@H](O)[C@]5(C)[C@@H](C7=CC(=O)OC7)CC[C@]65O)C4)O[C@@H]3C)O[C@@H]2C)C[C@H](O)[C@@H]1O  subjects with adverse event (refers to: respiratory, thoracic, mediastinal disorders; healthy men; oral, dose not given, 8 days, treatment-emergent, crossover trial): 0%
O=C(Nc1nc2cccc(-c3ccc(CN4CCS(=O)(=O)CC4)cc3)n2n1)C1CC1  treatment-emergent adverse events (refers to: first degree atrioventricular block; human rheumatoid arthritis patients; oral, 200 mg once daily, 4 weeks, regardless of relatedness): 0%
CCC(=O)N(CCC(c1ccc2c(c1)OCO2)c1ccccc1OC)Cc1ccccc1 (stereo not shown)  ALP (female athymic nude mouse, blood; i.p., 60 mg/kg twice daily, 14 days, group mean): 99 U/L
O=C(N[C@H](Cc1c[nH]c2ccccc12)C(=O)Nc1ccncc1)c1ccc(-c2ccc(F)c(Cl)c2)cc1F  concentration (Swiss Webster mouse, female, muscle; oral, 50 mg/kg, 2 h, 20% Kolliphor vehicle): 3.4 µM
OC[C@H]1O[C@@H](c2ccc(Cl)c(Cc3ccc(O[C@H]4CCOC4)cc3)c2)[C@H](O)[C@@H](O)[C@@H]1O  change in HDL cholesterol (Japanese type 1 diabetes patients, blood; 10 mg, day 28; baseline: baseline): 0.58 mg/dL
COc1ccc2[nH]c([S@+]([O-])Cc3ncc(CO)c(OC)c3C)nc2c1  AUC fold change (human, dried plasma spots; dose not given, mean, with: fluvoxamine and voriconazole; baseline: inhibition over control): 0.81 fold
CC(C)[C@@H](CS(=O)(=O)C(C)C)N1C(=O)[C@@](C)(CC(=O)O)C[C@H](c2cccc(Cl)c2)[C@H]1c1ccc(Cl)cc1  brain distribution advantage (FVB mouse, Abcg2 knockout, brain; intravenous, 20 mg/kg, unit not given; baseline: knockout Kp over wild-type Kp): 0.75
CCN1CCN(Cc2ccc(NC(=O)c3ccc(C)c(NC(=O)c4cncc(-c5cccs5)c4)c3)cc2C(F)(F)F)CC1  mean plasma concentration (LC-MS/MS; C57BL/6 mouse, plasma; intraperitoneal, 15 mg/kg single dose, 0.25 h): 0.531 µg/mL
COc1ncc(-c2nc3c(n2C(C)C)[C@H](c2ccc(Cl)cc2)N(c2cc(Cl)cn(C)c2=O)C3=O)c(OC)n1  AUC(0-last) (LC-MS/MS, noncompartmental; human, plasma; oral, 200 mg, cycle 2 day 1, high-dose, geometric mean): 14.7 µg·h/mL
COc1cccc(OC)c1-c1cc(C(=O)NC2(C(=O)O)C3CC4CC(C3)CC2C4)nn1-c1ccc(C(=O)N(C)CCCN(C)CCCN(C)C(=O)CN2CCN(CC(=O)[O-])CCN(CC(=O)[O-])CCN(CC(=O)[O-])CC2)cc1C(C)C.[177Lu+3] (stereo not shown)  tumour-to-heart ratio (mouse, HT-29 xenograft; 72 h post injection, biodistribution; baseline: tumour over heart uptake): 67.8
C=CC(=O)N1CCC([C@@H]2CCNc3c(C(N)=O)c(-c4ccc(Oc5ccccc5)cc4)nn32)CC1  stability relative error (rat plasma; 800 ng/mL, three freeze-thaw cycles; baseline: nominal concentration): 0.3%
CCCS(=O)(=O)Nc1ccc(F)c(C(=O)c2c[nH]c3ncc(-c4ccc(Cl)cc4)cc23)c1F  Km of saturable absorption (one-compartment model; tumour-bearing xenograft mouse, plasma; oral): 19900 µg/kg
Cc1cc(Nc2ccc(S(F)(F)(F)(F)F)cc2)n2nc(C(C)(F)F)nc2n1  free plasma concentration (mouse (CD-1, female), plasma; oral, 300 mg/kg daily, 8 h after dose 10): 354 ± 65 µM
CN(C(=O)n1cnc(-c2cccnc2)c1)[C@H]1CC[C@H](O)CC1  tissue concentration (rat, cortex; oral, 10 mg/kg daily for 5 days, 24 h): 16.8 ± 1 ng/g
O=C(c1nc2n(n1)[C@H](c1ccccc1)C[C@@H]2F)C1CC1  renal clearance (human; 25 mg single dose): 0.113 to 0.382 mL/min
N#Cc1ccc2c(c1)[C@H]1CCCN(C(=O)c3ccc4[nH]cnc4c3)[C@H]1C2  median ACTH level (human; 20 mg, day 7): 9.5 pmol/L
COCc1cc(C(=O)Nc2cc([C@H]3CC[C@@H](OC(=O)NC(C)C)C3)[nH]n2)n(C)n1  AUC(0-24h) (OVCAR-3 xenograft, NOD/SCID gamma mice, plasma; oral, 15 twice daily, PK/PD study): 2110 nM·h
C=C[C@@](C)(/C=C/c1ccc(O)cc1)CCC=C(C)C  accuracy (post-procedure stability; rat plasma; 8 ng/mL, 1 h, room temperature): 82.4%
O=C(O)CCCOc1ccc([18F])cc1-c1cc(-c2ccccc2C(F)(F)F)n(-c2ccccc2)n1  SUVmax (dynamic PET; healthy male C57BL/6J mice, myocardium; intravenous, isoflurane anaesthesia): 6 ± 0.3
Cn1cc(-c2ccc(-c3cncc(Cl)c3N3CCC4(CCNC4=O)CC3)cc2)cn1  log2 fold change (COLO 205; gene expression, microarray, refers to: SGK1 mRNA; concentration not given, 2 h; baseline: untreated cells): 6.67
CNC(=O)c1cc(Oc2ccc(NC(=O)Nc3ccc(Cl)c(C(F)(F)F)c3)c(F)c2)cc[n+]1[O-]  accuracy (short-term stability; mouse plasma; 25 ng/mL, 8 h, room temperature): 98.2%
Cc1ccc(Sc2ccccc2N2CCNCC2)c(C)c1  participants with TEAE (refers to: protein in urine; healthy adult men; oral, 10 mg daily, 12 days): 0%
Cc1c(-c2ccc(N3CCc4cccc(C(=O)Nc5nc6ccccc6s5)c4C3)nc2C(=O)O)cnn1CC12CC3(C)CC(C)(C1)CC(OCCNCC[C@H](O)CO)(C3)C2  systemic vascular resistance change (anaesthetised male beagle dogs; intravenous infusion, 0.3 mg/kg/min, 45 min; baseline: vehicle): 7%
CCn1cc(C(=O)N2CCOCC2)c(=O)c2cc(NC3Cc4ccccc4C3)cnc21  Cmax (human overall, fed, plasma; oral, 900 mg twice daily, day 1, tablet, arithmetic mean): 4.6 µg/mL
NC1(C(=O)N[C@@H](CCO)c2ccc(Cl)cc2)CCN(c2nc[nH]c3nccc2-3)CC1  incidence of Arthralgia (metastatic CRPC patients; 320 mg b.i.d., grade 3 to 4, treatment-related, with: enzalutamide 160 mg daily): 0%
Cl.[2H]C([2H])([2H])CC(=O)c1cnc(NC(=O)C2CC2)cc1Nc1cccc(-c2ncn(C([2H])([2H])[2H])n2)c1OC  AUC(0-inf) (geometric mean; human; oral, 20 mg twice daily, day 7, fed, liquid, multiple dose): 2.42 µg·h/mL
Cc1ccc([C@@H]2O[C@H](CO)[C@@H](O)[C@H](O)[C@H]2O)cc1Cc1ccc(-c2ccc(F)cc2)s1  urinary sodium excretion change (Japanese type 2 diabetes patients; 25 mg, day 16, 24 h urine collection; baseline: baseline): 5.19 mEq
CC(C)C[C@H](NC(=O)C[C@H](O)[C@H](CC(C)C)NC(=O)[C@H](Cc1c[nH]cn1)NC(=O)CNC(=O)[C@@H](NC(=O)[C@H](C)NC(=O)[C@H](Cc1c[nH]c2ccccc12)NC(=O)[C@H](CCC(N)=O)NC(=O)[C@@H](Cc1ccccc1)NC(=O)COCCOCCNC(=O)CCC(C(=O)O)N1CCN(CC(=O)O)CCN(CC(=O)O)CCN(CC(=O)O)CC1)C(C)C)C(N)=O (stereo partly shown) [lutetium-177 labelled]  tissue uptake (BALB/c nu/nu mice, blood; intravenous, 50 pmol, 1 h, with: PA 300 µg): 0.45 ± 0.08 %ID/g
Cc1cc(-c2nccc3c2ccn3CC(=O)Nc2ccc(-c3cnccn3)cn2)ccn1  device site dermatitis incidence (healthy human volunteers; oral, 7 mg single dose, single ascending dose): 0%
CCc1cc(C(=O)NC)c2nccc(N3CCc4c(cc(Cn5ccnc5)cc4-c4cn(C)nc4C(F)(F)F)C3=O)c2c1  gastrocnemius weight (Sprague Dawley rats; oral, 100 mg/kg once daily, 7 days): 2.93 ± 0.063 g
CN1C(=O)c2ccccc2[S@+]([O-])c2ccc(C(=O)NCCc3cccs3)cc21  brain concentration (C57BL/6 mouse, male, brain; intraperitoneal, 30 mg/kg, single dose, 12 h, quantification limit 1 ng/mL): not detected
CCCCCN1C[C@H](O)[C@@H](O)[C@H](O)[C@@H]1CO  plasma concentration (LC-MS/MS; mouse Hexb-/- total, plasma; 30 mg/kg/day, arithmetic mean): 0.284 µg/mL
CCN1/C(=C/C(C)=O)Sc2ccc(F)cc21  QRS duration (cynomolgus monkey; oral, 100 mg/kg, 2 h post-dose): 36 ± 1 ms
COc1cc([C@H]2OC[C@H]3[C@@H]2CO[C@@H]3c2ccc(O[C@@H]3O[C@H](CO)[C@@H](O)[C@H](O)[C@H]3O)c(OC)c2)ccc1O[C@@H]1O[C@H](CO)[C@@H](O)[C@H](O)[C@H]1O  accuracy (post-procedure stability; rat plasma; 1000 ng/mL, 3 h, room temperature): 96.5%
CC(C(=O)NCC(=O)NCC(CNC(=O)CNC(=O)C(C)N1CCN(CC(=O)[O-])CCN(CC(=O)[O-])CCN(CC(=O)[O-])CC1)(CNC(=O)CNC(=O)C(C)N1CCN(CC(=O)[O-])CCN(CC(=O)[O-])CCN(CC(=O)[O-])CC1)CNC(=O)CNC(=O)C(C)N1CCN(CC(=O)[O-])CCN(CC(=O)[O-])CCN(CC(=O)[O-])CC1)N1CCN(CC(=O)[O-])CCN(CC(=O)[O-])CCN(CC(=O)[O-])CC1.[Gd+3].[Gd+3].[Gd+3].[Gd+3] (stereo not shown)  lanthanide tissue concentration (cynomolgus monkey, muscle; dose not given, day 5): 0.11 ± 0.028 nmol/g
CCCC(CCC)C(=O)Oc1cccc(C(O)CCN)c1.O=CO (stereo not shown)  ERG, scotopic, rod b-wave (Abca4-/-Rdh8-/- mice, photic damage; oral, 20 mg/kg, 7 days, flash intensity 0.05): 124 µV and 140 µV and 84.5 µV and 113 µV and 86.8 µV and 116 µV
CC(C)(Sc1ccncc1-c1ccc(C#N)c2ccccc12)C(=O)O  amount excreted in urine (0-24 h) (human, urine; oral, 2.5 mg, with: febuxostat 0 mg): 40.8 µg
COc1ccc2c(=O)n(C)c(-c3ccccc3)nc2c1  tissue concentration (male Sprague-Dawley rat, large intestine; oral, 30 mg/kg, 0.25 h): 165 ng/g

A few entries again:
CCN1CCN(Cc2ccc(Nc3ncc(F)c(-c4cc(F)c5nc(C)n(C(C)C)c5c4)n3)nc2)CC1  Vss/F (healthy human, fasted; oral, 150 mg, 3 x 50 mg capsules): 1740 L
C=CC(=O)N1CCC([C@@H]2CCNc3c(C(N)=O)c(-c4ccc(Oc5ccccc5)cc4)nn32)CC1  stability relative error (rat plasma; 800 ng/mL, three freeze-thaw cycles; baseline: nominal concentration): 0.3%
O=C(N[C@H](Cc1c[nH]c2ccccc12)C(=O)Nc1ccncc1)c1ccc(-c2ccc(F)c(Cl)c2)cc1F  concentration (Swiss Webster mouse, female, muscle; oral, 50 mg/kg, 2 h, 20% Kolliphor vehicle): 3.4 µM
CNc1ccc(-c2nc3ccc(O)cc3s2)cc1 [carbon-11 labelled]  SUV (ex vivo biodistribution; B6SJL mouse, normal, kidneys; intravenous, 30 min): 3.88 ± 0.803
